{"data": "Assay results from different studies", "note": "Each line is one published result; not all experiments were run side by side."}
{"Compound": "COC1C=COC2(C)Oc3c(C)c(O)c4c(c3C2=O)C2=NC3(CCN(CC(C)C)CC3)NC2=C(NC(=O)C(C)=CC=CC(C)C(O)C(C)C(O)C(C)C(OC(=O)c2cncnc2)C1C)C4=O (stereo not shown)", "species": "female CD-1 mouse", "medium": "plasma", "route": "intravenous", "dose": "5 mg/kg", "endpoint": "Vd", "value": "2.4 L/kg"}
{"Compound": "Nc1ccn(C[C@@H](CO)OCP(=O)(O)OCCCS(=O)(=O)CCCCCCCCCCCCC2CCC2)c(=O)n1", "species": "mouse", "medium": "plasma", "route": "intravenous", "dose": "3 mg/kg", "setting": "single dose", "endpoint": "Vd", "value": "4.2 L/kg"}
{"Compound": "COc1cccc2c1C(=O)c1c(O)c3c(c(O)c1C2=O)C[C@@](O)(C(=O)CO)C[C@@H]3O[C@H]1C[C@H](N)[C@@H](O)[C@H](C)O1", "species": "male Kunming mouse", "medium": "plasma", "route": "intravenous", "dose": "5 mg/kg", "endpoint": "Vd", "value": "1.11 L/kg"}
{"Compound": "COC(=O)c1ccc2c(c1)NC(=O)/C2=C(\\Nc1ccc2c(c1)CCN2C(=O)CN1CCOCC1)c1ccccc1", "species": "CD-1 mouse", "medium": "blood", "route": "intravenous", "dose": "10 mg/kg", "endpoint": "Vd", "value": "1.79 L/kg"}
{"Compound": "O=C1OC2(c3ccccc31)c1cc(I)c(O)c(I)c1Oc1c2cc(I)c(O)c1I", "species": "female C57BL/6 mouse", "medium": "plasma", "route": "intraperitoneal", "dose": "50 mg/kg", "endpoint": "Vd/F", "value": "2.8 L/kg"}
{"Compound": "COC1C=COC2(C)Oc3c(C)c(O)c4c(c3C2=O)C2=NC3(CCN(CC(C)C)CC3)NC2=C(NC(=O)C(C)=CC=CC(C)C(O)C(C)C(O)C(C)C(OC(=O)c2cccnc2)C1C)C4=O (stereo not shown)", "species": "female CD-1 mouse", "medium": "plasma", "route": "intravenous", "dose": "5 mg/kg", "endpoint": "Vd", "value": "1.8 L/kg"}
{"Compound": "CN1/C(=C/C=C/c2cc(-c3ccccc3)cc(-c3ccccc3)[o+]2)C(C)(C)c2ccccc21", "species": "male CD-1 mouse", "medium": "plasma", "route": "intravenous", "dose": "1 mg/kg", "setting": "single dose", "endpoint": "Vd", "value": "12.2 L/kg"}
{"Compound": "C[C@H]1CN(C(=O)c2cn(-c3ccnc(N)n3)c3cc(C#CC4(O)CCCCC4)ccc23)CCN1", "species": "CD-1 mouse", "medium": "plasma", "route": "intravenous", "dose": "1 mg/kg", "endpoint": "Vd", "value": "2.57 L/kg"}
{"Compound": "Nc1ccn(C[C@@H](CO)OCP(=O)(O)OCCCS(=O)(=O)CCCCCCCCCCCCCC2CCC2)c(=O)n1", "species": "mouse", "medium": "plasma", "route": "intravenous", "dose": "3 mg/kg", "setting": "single dose", "endpoint": "Vd", "value": "4 L/kg"}
{"Compound": "O=C(Cc1ccc(-c2ccc(OCCN3CCOCC3)cc2)cn1)NCc1ccc(F)cc1", "species": "CD-1 mouse", "medium": "plasma", "route": "intravenous", "dose": "2 mg/kg", "endpoint": "Vd", "value": "3.23 L/kg"}
{"Compound": "COC1C=COC2(C)Oc3c(C)c(O)c4c(c3C2=O)C2=NC3(CCN(CC(C)C)CC3)NC2=C(NC(=O)C(C)=CC=CC(C)C(O)C(C)C(O)C(C)C(OC(=O)Nc2cnccn2)C1C)C4=O (stereo not shown)", "species": "female CD-1 mouse", "medium": "plasma", "route": "intravenous", "dose": "5 mg/kg", "endpoint": "Vd", "value": "0.8 L/kg"}
{"Compound": "Cc1cc(O)cc(O)c1C(=O)c1c2c3c(c(O)cc(C)c3oc1=O)C(=O)c1c(O)cc(O)cc1-2", "species": "male Kunming mouse", "medium": "plasma", "route": "intraperitoneal", "dose": "30 mg/kg", "endpoint": "Vd/F", "value": "0.41 L/kg"}
{"Compound": "CCS(=O)(=O)c1ccccc1C(=O)N1CCN(c2nc3ccc(F)cc3s2)C[C@@H]1C", "species": "mouse", "medium": "plasma", "route": "intravenous", "dose": "3 mg/kg", "endpoint": "Vd", "value": "3.5 L/kg"}
{"note": "For quick reference, copied from above:"}
{"Compound": "COC1C=COC2(C)Oc3c(C)c(O)c4c(c3C2=O)C2=NC3(CCN(CC(C)C)CC3)NC2=C(NC(=O)C(C)=CC=CC(C)C(O)C(C)C(O)C(C)C(OC(=O)c2cncnc2)C1C)C4=O (stereo not shown)", "species": "female CD-1 mouse", "medium": "plasma", "route": "intravenous", "dose": "5 mg/kg", "endpoint": "Vd", "value": "2.4 L/kg"}
